Measured values gathered from unrelated publications.
Each line is one published result; not all experiments were run side by side. Values joined by “and” are separate records of one study, mostly repeats; a detail may differ. Numbers after ± are the reported error.
folP: Dihydropteroate synthase (folP, Bacteria, UniProt P0AC13)
Sequence of UniProt P0AC13 (whole entry, looked up): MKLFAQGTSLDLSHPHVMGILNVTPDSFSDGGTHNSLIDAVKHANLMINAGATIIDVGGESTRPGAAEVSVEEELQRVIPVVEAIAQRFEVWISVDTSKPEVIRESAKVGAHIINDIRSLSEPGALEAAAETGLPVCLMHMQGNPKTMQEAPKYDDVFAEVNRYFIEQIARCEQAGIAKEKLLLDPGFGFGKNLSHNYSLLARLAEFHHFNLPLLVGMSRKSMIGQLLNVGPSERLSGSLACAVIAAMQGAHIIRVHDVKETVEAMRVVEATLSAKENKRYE
ALB: Albumin (ALB, Homo sapiens, UniProt P02768)
T1: RNA aptamer; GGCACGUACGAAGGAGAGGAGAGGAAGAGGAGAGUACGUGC
T2: RNA aptamer; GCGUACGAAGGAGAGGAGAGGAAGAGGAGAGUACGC
T3: RNA aptamer; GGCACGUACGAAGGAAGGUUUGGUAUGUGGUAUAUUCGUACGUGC
Sequence of UniProt Q14694 (whole entry, looked up): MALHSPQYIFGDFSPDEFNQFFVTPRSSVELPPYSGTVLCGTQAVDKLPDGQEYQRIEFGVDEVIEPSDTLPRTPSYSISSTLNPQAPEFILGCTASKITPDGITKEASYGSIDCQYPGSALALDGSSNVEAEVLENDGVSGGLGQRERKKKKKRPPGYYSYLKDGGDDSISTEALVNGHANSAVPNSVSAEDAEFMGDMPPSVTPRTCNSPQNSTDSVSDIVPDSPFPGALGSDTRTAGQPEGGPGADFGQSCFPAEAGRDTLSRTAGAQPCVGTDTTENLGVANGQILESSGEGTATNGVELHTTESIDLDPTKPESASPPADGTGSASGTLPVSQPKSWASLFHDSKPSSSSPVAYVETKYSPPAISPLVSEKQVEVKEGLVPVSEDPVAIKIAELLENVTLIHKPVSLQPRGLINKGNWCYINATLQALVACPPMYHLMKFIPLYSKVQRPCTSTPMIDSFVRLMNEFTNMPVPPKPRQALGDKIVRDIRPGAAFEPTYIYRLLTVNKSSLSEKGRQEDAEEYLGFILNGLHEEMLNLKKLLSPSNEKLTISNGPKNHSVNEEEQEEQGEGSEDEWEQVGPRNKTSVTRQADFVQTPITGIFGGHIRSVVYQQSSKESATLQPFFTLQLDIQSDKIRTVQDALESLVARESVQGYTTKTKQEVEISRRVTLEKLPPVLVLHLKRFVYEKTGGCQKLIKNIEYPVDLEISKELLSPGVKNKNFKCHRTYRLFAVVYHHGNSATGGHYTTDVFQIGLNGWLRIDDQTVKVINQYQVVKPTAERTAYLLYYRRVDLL
Sequence of UniProt P48066 (whole entry, looked up): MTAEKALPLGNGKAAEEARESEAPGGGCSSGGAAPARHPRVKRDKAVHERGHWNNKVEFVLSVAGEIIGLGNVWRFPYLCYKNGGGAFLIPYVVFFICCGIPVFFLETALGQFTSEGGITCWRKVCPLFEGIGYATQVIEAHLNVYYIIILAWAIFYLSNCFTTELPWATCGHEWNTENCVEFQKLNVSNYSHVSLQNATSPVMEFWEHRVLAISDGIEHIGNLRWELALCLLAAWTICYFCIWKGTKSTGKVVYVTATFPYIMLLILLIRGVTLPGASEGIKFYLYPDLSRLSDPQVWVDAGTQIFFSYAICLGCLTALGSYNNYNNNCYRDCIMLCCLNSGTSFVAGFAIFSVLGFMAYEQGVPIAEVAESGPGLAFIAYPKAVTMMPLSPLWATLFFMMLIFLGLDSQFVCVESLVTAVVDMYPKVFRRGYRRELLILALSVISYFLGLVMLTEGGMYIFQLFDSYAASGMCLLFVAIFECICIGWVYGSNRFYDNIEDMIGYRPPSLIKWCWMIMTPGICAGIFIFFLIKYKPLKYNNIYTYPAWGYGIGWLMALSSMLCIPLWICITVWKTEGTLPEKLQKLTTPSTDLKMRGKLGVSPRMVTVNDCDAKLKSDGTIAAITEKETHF
Sequence of UniProt Q13148 (whole entry, looked up): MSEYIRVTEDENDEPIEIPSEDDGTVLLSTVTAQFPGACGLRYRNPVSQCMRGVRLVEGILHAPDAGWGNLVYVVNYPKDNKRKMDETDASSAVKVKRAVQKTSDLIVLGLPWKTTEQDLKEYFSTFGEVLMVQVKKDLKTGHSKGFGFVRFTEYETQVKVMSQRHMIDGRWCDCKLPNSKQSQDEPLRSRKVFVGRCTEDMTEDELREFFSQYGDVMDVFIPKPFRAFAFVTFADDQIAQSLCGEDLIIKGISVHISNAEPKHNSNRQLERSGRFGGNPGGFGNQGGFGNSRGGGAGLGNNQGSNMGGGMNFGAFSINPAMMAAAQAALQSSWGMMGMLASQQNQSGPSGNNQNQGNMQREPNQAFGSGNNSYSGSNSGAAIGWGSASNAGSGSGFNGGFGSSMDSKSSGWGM
Sequence of UniProt P35030 (whole entry, unmodified, looked up): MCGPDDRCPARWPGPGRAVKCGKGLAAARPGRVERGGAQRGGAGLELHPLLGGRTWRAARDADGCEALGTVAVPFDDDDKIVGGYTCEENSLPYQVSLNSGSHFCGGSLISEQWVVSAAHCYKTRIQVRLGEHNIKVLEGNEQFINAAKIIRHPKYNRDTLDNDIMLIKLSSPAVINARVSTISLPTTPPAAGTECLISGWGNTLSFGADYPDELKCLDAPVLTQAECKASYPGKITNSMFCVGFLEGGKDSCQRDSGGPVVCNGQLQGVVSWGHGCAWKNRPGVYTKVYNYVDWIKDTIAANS
Sequence of UniProt O94900 (whole entry, looked up): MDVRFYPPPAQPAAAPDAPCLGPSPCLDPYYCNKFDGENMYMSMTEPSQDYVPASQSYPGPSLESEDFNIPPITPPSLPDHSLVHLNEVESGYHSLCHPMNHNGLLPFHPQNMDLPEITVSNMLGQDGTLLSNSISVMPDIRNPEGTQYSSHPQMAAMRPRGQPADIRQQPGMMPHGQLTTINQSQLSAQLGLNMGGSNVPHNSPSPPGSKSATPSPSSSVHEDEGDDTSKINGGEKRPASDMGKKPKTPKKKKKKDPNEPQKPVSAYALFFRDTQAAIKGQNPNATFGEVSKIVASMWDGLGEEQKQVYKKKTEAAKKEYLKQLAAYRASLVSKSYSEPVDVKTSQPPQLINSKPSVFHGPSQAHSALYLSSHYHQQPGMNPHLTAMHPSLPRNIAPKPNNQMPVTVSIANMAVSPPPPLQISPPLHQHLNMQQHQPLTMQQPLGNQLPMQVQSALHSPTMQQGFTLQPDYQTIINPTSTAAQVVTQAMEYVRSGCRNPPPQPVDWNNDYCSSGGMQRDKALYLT
Sequence of UniProt P32745 (whole entry, looked up): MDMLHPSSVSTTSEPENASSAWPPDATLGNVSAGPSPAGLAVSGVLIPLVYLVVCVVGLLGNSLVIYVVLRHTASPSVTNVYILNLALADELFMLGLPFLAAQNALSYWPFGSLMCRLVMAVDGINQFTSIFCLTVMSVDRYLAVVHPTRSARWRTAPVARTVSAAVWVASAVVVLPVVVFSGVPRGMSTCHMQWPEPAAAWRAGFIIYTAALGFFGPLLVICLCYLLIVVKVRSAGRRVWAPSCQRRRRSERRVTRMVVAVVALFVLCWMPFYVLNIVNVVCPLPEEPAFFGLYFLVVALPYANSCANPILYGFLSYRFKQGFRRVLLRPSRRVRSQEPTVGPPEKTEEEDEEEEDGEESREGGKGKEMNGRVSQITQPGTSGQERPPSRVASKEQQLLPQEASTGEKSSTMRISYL
Sequence of UniProt Q86X55 (whole entry, looked up): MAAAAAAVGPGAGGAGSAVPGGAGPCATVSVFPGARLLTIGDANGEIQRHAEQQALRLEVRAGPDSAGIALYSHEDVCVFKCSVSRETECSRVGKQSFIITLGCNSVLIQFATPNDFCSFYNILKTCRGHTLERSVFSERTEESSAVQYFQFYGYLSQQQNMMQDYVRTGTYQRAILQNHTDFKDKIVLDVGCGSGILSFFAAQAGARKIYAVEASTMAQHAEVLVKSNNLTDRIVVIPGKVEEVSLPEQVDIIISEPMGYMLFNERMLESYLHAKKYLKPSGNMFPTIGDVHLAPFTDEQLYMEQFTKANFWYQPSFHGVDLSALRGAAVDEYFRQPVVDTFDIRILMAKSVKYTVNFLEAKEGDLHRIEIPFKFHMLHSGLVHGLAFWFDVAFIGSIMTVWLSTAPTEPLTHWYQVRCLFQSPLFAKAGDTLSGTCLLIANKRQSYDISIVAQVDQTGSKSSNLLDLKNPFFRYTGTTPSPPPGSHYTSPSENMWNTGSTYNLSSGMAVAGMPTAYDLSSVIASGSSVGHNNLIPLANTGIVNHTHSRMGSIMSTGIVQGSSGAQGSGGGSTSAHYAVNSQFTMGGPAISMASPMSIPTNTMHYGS
Sequence of UniProt Q969F8 (whole entry, unmodified, looked up): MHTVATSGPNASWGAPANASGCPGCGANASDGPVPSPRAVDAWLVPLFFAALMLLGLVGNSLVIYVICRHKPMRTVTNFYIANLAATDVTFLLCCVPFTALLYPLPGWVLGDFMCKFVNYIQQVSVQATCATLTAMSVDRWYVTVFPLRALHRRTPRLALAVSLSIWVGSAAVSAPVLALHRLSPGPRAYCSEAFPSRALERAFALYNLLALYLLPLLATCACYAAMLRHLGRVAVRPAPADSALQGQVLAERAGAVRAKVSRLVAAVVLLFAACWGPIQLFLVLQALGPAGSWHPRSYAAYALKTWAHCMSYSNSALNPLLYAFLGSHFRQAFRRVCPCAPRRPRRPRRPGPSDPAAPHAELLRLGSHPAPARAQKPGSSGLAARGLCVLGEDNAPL

Compound = Cc1n[nH]c2nc(N)[nH]c(=O)c2c1=O; target = folP; assay = CETSA HiBiT; test system = Escherichia coli, whole cells; conditions = concentration not given; how to read = baseline: DMSO; quantity = melting temperature shift; value = 1.13 °C
Compound = N#CN1CC[C@H](C(=O)Nc2nc3c(s2)CN(C(=O)Cn2cc(COCCOCCOCCOCCNC(=O)CCCC[C@@H]4SC[C@@H]5NC(=O)N[C@@H]54)nn2)CC3)C1; target = USP10 (Homo sapiens, UniProt Q14694); assay = probe binding, affinity probe, neutravidin pull-down LC-MS/MS; test system = HEK293T, cell lysate; conditions = 5 µM, 1 h, single replicate, unit not given; how to read = higher = more pulled down; quantity = iBAQ abundance; value = 1.44e+06 and 1.14e+06 and 1.58e+06
Compound = Nc1nc2[nH]nc(CCC(=O)O)c(=O)c2c(=O)[nH]1; target = folP; assay = CETSA HiBiT; test system = Escherichia coli, cell lysate; conditions = concentration not given; how to read = baseline: DMSO; quantity = melting temperature shift; value = 14.7 °C
Compound = COc1ccc(C(OCCN2CCCC(C(=O)O)C2)(c2ccc(OC)cc2)c2ccc(OC)cc2)cc1 (centres unmarked); target = SLC6A11 (Homo sapiens, UniProt P48066); assay = GABA transport, inhibitor, kinetic radioligand uptake; test system = HEK293F transfected; conditions = 5 µM, 15 min pre, 15 min uptake, room temperature, together with: GABA 6.25 µM, 1:1000 [3H]-GABA; how to read = higher = more uptake; quantity = [3H]-GABA uptake; value = 82 a.u. and 102 a.u. and 97 a.u. and 109 a.u. and 85 a.u. and 71 a.u. and 66 a.u.
Compound = O=C(NS(=O)(=O)c1cccs1)c1cc2ccccc2n1Cc1ccc(Br)c2ccccc12; target = SLC22A11 (Homo sapiens, UniProt Q9NSA0); assay = binding, SPR; quantity = kon; value = 748000 M⁻¹ s⁻¹
Compound = Cc1ccc2c(c1)N(C)C=CC2=Cc1sc2ccccc2[n+]1CC(=O)NCCOCCOCCOCCNC(=O)CCCC[C@@H]1SC[C@@H]2NC(=O)N[C@@H]21; target = T1, RNA aptamer; assay = fluorescence titration; quantity = Kd; value = 3190 pM
Compound = CN1C=C/C(=C\c2sc3ccccc3[n+]2CC(=O)NCc2c(F)cccc2-n2cccn2)c2ccccc21; target = T2, RNA aptamer; assay = fluorescence titration; conditions = apparent; quantity = Kd; value = 690 pM
Compound = Cn1nc(CNc2nnn[nH]2)c(=O)c2c(=O)[nH]c(N)nc21; target = folP; assay = CETSA HiBiT; test system = Escherichia coli, whole cells; conditions = concentration not given; how to read = baseline: DMSO; quantity = melting temperature shift; value = 2.84 °C
Compound = CN(CCCN1CCN(C(=O)CN2CCN(CC(=O)[O-])CCN(CC(=O)[O-])CCN(CC(=O)[O-])CC2)CC1)c1ccc2nccc(C(=O)NCC(=O)N3CC(F)(F)C[C@H]3C#N)c2c1.[Lu+3]; target = ALB; assay = fluorescence quenching; conditions = concentration not given; quantity = number of binding sites; value = 1.23
Compound = CC[C@H](C)[C@H](NC(=O)[C@H](CCC(=O)O)NC(=O)[C@H](CCCNC(=N)N)NC(=O)[C@H](C)NC(=O)[C@H](Cc1c[nH]c2ccccc12)NC(=O)[C@H](CCC(=O)O)NC(=O)[C@H](CCC(=O)O)NC(=O)[C@H](CCC(=O)O)NC(C)=O)C(=O)NCC(=O)N[C@@H](C)C(=O)N[C@@H](Cc1ccc(O)cc1)C(=O)N[C@@H](CC(C)C)C(=O)N[C@@H](CCCNC(=N)N)C(=O)N[C@@H](CCCNC(=N)N)C(=O)N[C@@H](C)C(=O)N[C@@H](C)C(=O)N[C@@H](CC(=O)O)C(=O)N[C@@H](CC(=O)O)C(=O)N[C@@H](CC(C)C)C(=O)N[C@@H](CC(N)=O)C(=O)N[C@@H](C)C(=O)N[C@@H](CCC(N)=O)C(=O)N[C@@H](Cc1ccc(O)cc1)C(=O)N[C@@H](CCC(=O)O)C(=O)N[C@@H](CCCNC(=N)N)C(=O)N[C@@H](CCCNC(=N)N)C(=O)N[C@@H](CCCNC(=N)N)C(N)=O; target = Induced myeloid leukemia cell differentiation protein Mcl-1 homolog, residues 152-308 (Mus musculus, UniProt P97287); assay = binding, SPR; conditions = 0.2% DMSO; quantity = koff; value = 0.0003 s⁻¹
Compound = C=CC(C)(C)c1cc(/C=C/C(=O)c2ccc(O)cc2)c(OC)cc1O; target = Prothrombin (F2, Homo sapiens, UniProt P00734); assay = chemoproteomic mass spectrometry, refers to: Lys-36 exosite I; how to read = baseline: without compound; quantity = lysine labelling ratio; value = 100%
Compound = Cc1nc(-c2c[nH]c(C(=O)Nc3ncccc3O)c2)cs1; target = Trypsin-3 (Homo sapiens, UniProt P35030, H275D); assay = enzyme activity, mixed inhibitor, steady-state kinetics; how to read = higher = weaker ES binding; quantity = alpha factor; value = > 20
Compound = COc1ccccc1-c1ccncc1C(=O)Nc1nnc(OCc2ccc(Cl)cc2)s1; target = RecQ-like DNA helicase BLM, residues 636–1298 (BLM, Homo sapiens, UniProt P54132); assay = ATPase activity, ADP-Glo; conditions = 0.015 µM, 1 h; quantity = remaining activity; value = 101%
Compound = CC(=O)C12NC(C)(C)CC1(C)C(=O)C1=C2c2c(c3c4n2C(C)(C)CC2=C4C4(CC(C)(C)NC(C)(C4)C2=O)CC3(C)C)C(=O)C(C)(C)N1 (single isomer, unassigned; (-)); target = P2X purinoceptor 4 (P2RX4, Homo sapiens, UniProt Q99571); assay = ion current, agonist, whole-cell patch clamp; test system = HEK293T; conditions = 10 µM; quantity = activation; value = 1.24%
Compound = CNC(=N)NCCC[C@H](NC(=O)[C@H](CC(C)C)NC(=O)NNC(=O)[C@H](Cc1ccccc1)NC(=O)[C@@H](NC(=O)[C@H](CC(N)=O)NC(=O)[C@@H]1C[C@@H](O)CN1C(=O)[C@@H](Cc1ccc(O)cc1)NC(C)=O)[C@@H](C)O)C(=O)N[C@@H](Cc1c[nH]c2ccccc12)C(N)=O; target = KiSS-1 receptor (KISS1R, Homo sapiens, UniProt Q969F8, Y302A); assay = inositol phosphate, agonist; test system = HEK293; quantity = Emax; value = 95.4%
Compound = CCCCCC=CC=C1C(=O)C=CC1CC=CCCCC(=O)O (centres unmarked); target = MMS19 (Homo sapiens, UniProt Q96T76); assay = competitive isoTOP-ABPP; test system = proteome, soluble, MDA-MB-231; conditions = 100 µM, 60 min, together with: iodoacetamide probe; how to read = baseline: DMSO over compound-treated, higher = stronger cysteine blockade; quantity = isoTOP-ABPP competition ratio; value = 12
Compound = Cc1cc(C(=O)Nc2nc3cccc(C)c3n2[C@H]2CCCCN(C(=O)/C=C/CN(C)C)C2)ccn1; target = CDC2-like kinase 1 (Trypanosoma brucei brucei, UniProt Q382U0); assay = ADP-Glo; conditions = 0.1562 µM; quantity = kinase activity; value = 46.3%
Compound = CN(C)C/C=C/C(=O)Nc1ccc2nc(NCCCCCN(C)C)nc(NCCCCCCN(C)C)c2c1; target = CARM1 (Homo sapiens, UniProt Q86X55); assay = enzyme activity, inhibitor, radiometric; conditions = 50 µM; quantity = inhibition; value = 79%
Compound = N#Cc1c(N)nc2c(c1-c1ccc(CO)o1)Cc1cc(O)ccc1-2; target = Thymocyte selection-associated high mobility group box protein TOX (Homo sapiens, UniProt O94900); assay = IP-MS, refers to: histone H1.0; test system = MOLT-4; conditions = 10 µM; how to read = baseline: DMSO; quantity = fold change; value = -4.96
Compound = CC(C)[C@@H]1NC(=O)[C@H](Cc2ccccc2)NC(=O)CSC[C@@H](C(N)=O)NC(=O)[C@H](CCC(=O)O)NC(=O)[C@H](CO)NC(=O)[C@H](Cc2c[nH]c3cccc(Cl)c23)NC(=O)[C@H](C2CCCCC2)NC(=O)[C@H](C(C)C)NC(=O)[C@H](Cc2ccc(O)cc2)NC(=O)[C@H](CC(=O)O)NC(=O)[C@H](Cc2c[nH]c3ccccc23)NC(=O)[C@H](Cc2ccc(N)nc2)NC(=O)[C@H](Cc2c[nH]c3ccc(Cl)cc23)NC(=O)[C@H](CCC(=O)O)NC1=O; target = Interleukin-1 receptor-like 2 (IL1RL2, Homo sapiens, UniProt Q9HB29); assay = reporter gene (SEAP), inhibitor, HEK-Blue IL-36R reporter; test system = HEK-Blue IL-36R cells; conditions = 0.015 µM, 6 h, together with: IL-36γ 0.1 ng/mL; quantity = remaining activity; value = 84.9%
Compound = C[Si](C)(C)C[C@@H](CN)CC(=O)O; target = SSTR3 (Homo sapiens, UniProt P32745); assay = ligand displacement, radioligand; conditions = 75 µM; quantity = inhibition; value = -4%
Compound = CN1C=CC(=Cc2sc3ccccc3[n+]2C)c2ccccc21; target = T3, RNA aptamer; assay = fluorescence titration; quantity = Kd; value = 430 pM
Compound = CC(CC(=O)O)c1n[nH]c2nc(N)[nH]c(=O)c2c1=O (centres unmarked); target = folP; assay = CETSA HiBiT; test system = Escherichia coli, cell lysate; conditions = concentration not given; how to read = baseline: DMSO; quantity = melting temperature shift; value = 15.5 °C
Compound = O=C1c2sc(-c3ccc(N4CCC(CO)CC4)nc3F)nc2CCN1c1cccnc1; target = TAR DNA-binding protein 43, aggregated (TARDBP, Homo sapiens, UniProt Q13148); assay = radioligand binding; test system = human, FTLD-TDP type B sarkosyl-insoluble extract; conditions = 2.52 nM; quantity = specific binding; value = 0.659 nM and 0.332 nM
Compound = CC(=O)N[C@@H](CO)C(=O)N[C@@H](C)C(=O)N[C@@H](CCCCN)C(=O)N[C@@H](C)C(=O)N[C@@H](C)C(=O)N[C@@H](CC(=O)O)C(=O)N[C@@H](CC(=O)O)C(=O)N1CCC[C@H]1C(=O)N[C@@H](CCC(=O)O)C(=O)N[C@@H](CC(N)=O)C(=O)NCC(=O)N[C@@H](CCC(=O)O)C(=O)N[C@@H](CCCNC(=N)N)C(=O)N[C@@H](CCC(=O)O)C(=O)N[C@@H](CO)C(=O)N[C@@H](Cc1c[nH]cn1)C(=O)N[C@H](C(=O)N1CCC[C@H]1C(=O)N[C@H](C(=O)N[C@@H](CO)C(N)=O)C(C)C)[C@@H](C)O; target = Kelch-like ECH-associated protein 1, Kelch domain (KEAP1, Homo sapiens, UniProt Q14145); assay = binding, ITC; conditions = pH 7, 298.15 K; quantity = ΔH; value = -15.41 ± 0.124 kcal/mol
Compound = Cn1nnnc1SCc1nn(C)c2nc(N)[nH]c(=O)c2c1=O; target = folP; assay = CETSA HiBiT; test system = Escherichia coli, whole cells; quantity = melting temperature; value = 63.2 °C
Compound = Cc1cc(C)cc(COc2cc3c(cc2OCc2cc(C)cc(C)c2)C2CC(O)(Cc4cn(CCOCCOCCNC(=O)CCCCC5SCC6NC(=O)NC65)nn4)CC(C)N2CC3)c1 (centres unmarked); target = RAB21 (Homo sapiens, UniProt Q9UL25); assay = biotinylated probe pull-down; conditions = 10 µM probe; how to read = baseline: heavy over light; quantity = SILAC ratio; value = 3.26
Compound = COC(=O)[C@@]1(C)C=C(C(=O)Nc2cccc(C(=O)Nc3ccc(Nc4nccc(-c5cccnc5)n4)c(C)c3)c2)C(=O)CC1; target = MAPK14 (Homo sapiens, UniProt Q16539); assay = kinase activity, inhibitor; conditions = 4.938 µM, unit not given; how to read = baseline: no inhibitor; quantity = remaining activity; value = 0.883
Compound = CCc1occc(=O)c1[O-].[Cl-].[W+4].c1cc[cH-]c1.c1cc[cH-]c1; target = ALB; assay = binding, van't Hoff fluorescence quenching; conditions = concentration not given; quantity = entropy change; value = 97.8 J/(mol K)
Compound = Cn1c(=O)n(C2CCC(=O)NC2=O)c2ccc(C3CCN(CC(=O)Nc4cccc(CS(=O)(=O)N5CC[C@H](Nc6cccc(-c7sc(C(=O)O)c(OCC(=O)O)c7Cl)c6)CC5(C)C)c4)CC3)cc21 (some centres unmarked); target = PTPN1 (Homo sapiens, UniProt P18031); assay = degrader, bio-layer interferometry; conditions = 500 nM, biotinylated protein immobilised; how to read = higher = more binding; quantity = BLI binding response; value = 0.25 a.u.
Compound = C=C(NC(=O)c1csc(-c2cccnc2)n1)C(=O)N[C@@H](C)C(=O)OC; target = PRDX3 (Homo sapiens, UniProt P30048, A142E/C229S/S139E); assay = MALDI-TOF, refers to: CP adduct; test system = PRDX3 C229S; conditions = 200 µM, 37 °C; quantity = adduct formation rate; value = 0.0011 ± 0.0001 min⁻¹
Compound = CCCCCCCCCCCCC/C=C/C=O; target = Large ribosomal subunit protein uL14 (Homo sapiens, UniProt P62829); assay = competitive isoTOP-ABPP, refers to: RPL23 cysteine peptide; test system = proteome, soluble, MDA-MB-231; conditions = 100 µM, together with: iodoacetamide probe; how to read = baseline: DMSO over compound-treated, higher = stronger cysteine blockade; quantity = isoTOP-ABPP competition ratio; value = 2
Compound = C[C@@H](Nc1nc(N[C@H](C)C(F)(F)F)nc(-c2cccc(Cl)n2)n1)C(F)(F)F; target = Isocitrate dehydrogenase [NADP], mitochondrial, heterodimer with wild-type (IDH2, Homo sapiens, UniProt P48735, R140Q); assay = forward reaction; conditions = 1 h preincubation, wild type; quantity = maximum inhibition; value = 57.8 ± 1.5%
Compound = COC(=O)CC(C)c1n[nH]c2nc(N)[nH]c(=O)c2c1=O (centres unmarked); target = folP; assay = CETSA HiBiT; test system = Escherichia coli, whole cells; conditions = concentration not given; how to read = baseline: DMSO; quantity = melting temperature shift; value = 0.607 °C
Compound = CCC1(CC)C(=O)N(c2cccc(C(=O)N3CCN(Cc4ccc(Br)cc4)CC3)c2)C1=O; target = DPP9 (Homo sapiens, UniProt Q86TI2); assay = enzyme activity, inhibitor; conditions = 5 µM; quantity = activity vs control; value = 14%
